Measurements gathered from unrelated publications.
Numbered parts are unrelated; each lists some results of a single study.

Series 1
Target: RNA binding protein fox-1 homolog 2, RRM domain, GST-SBP tag (RBFOX2, Homo sapiens, UniProt O43251-10, residues 100-194)
Technique: RNA Bind-n-Seq
Form: RNA
Medium: in vitro
Concentration: 365 nM
Notes: natural RNA segment, single round, ends assumed
Reference: no-protein control
Direction: higher = stronger binding
Constant ends, left off below: GGGAGUUCUACAGUCCGACGAUC … UGGAAUUCUCGGGUGCCAA
Construct (chain): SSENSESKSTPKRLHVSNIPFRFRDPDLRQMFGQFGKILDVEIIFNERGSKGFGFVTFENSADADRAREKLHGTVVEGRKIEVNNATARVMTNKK
Oligonucleotide	RBNS enrichment (R)
CCCGUCCACGUCCUCCAAGCUCACGACCUUGGAGCCCCGUGGAGCUGGACUGAGGAGGAGGCUGCACAGCGGGAGAGCAGCUGGUCCAGACCAGCCCUGCAGCCCCCACU	0.261
UCCAAAAUAACUAGGAUCUGCAUUUAGAACAAGAAUCAUUAUUUGUCCUGACCUUUUCAGUCCUACAGAGACGCAUCUGUGGUUCUUUUGUACUUGCCAUAGAUGUAACC	0.493
CCAGUCGAUCACAGCCAUUACCAAUAAGUUCAACCUCAAAGUACUUCAUAAAAAUCUGACCAAUCUACUAAAAUACUGCAGGCGUGAAAGGUUCUGUUGGAGCUGAAUGU	0.488
UUCUACUCUGUUCCUGGCCCUGCCGGCAGCCACUGACAAGAGGCCAGUGUGUCACCAGCCCUCAGCAGAAACCGAAAGAGAAAGAACGGAAACACGGAGUUUGGGCUCUG	0.206
UUAGAAACACUCAGUCUCUGGUCCCAGAGGAUGGCUUCUCAGGGCAUGCCACAAGUUAAAGGUCACCUUCCUGAAAGAUGAAUGAGAAAGCUGCCCAUUCUCAAGACUCA	0.367
AUCCCUUACUCUUCGGGUCAGCUGUUGAGAAGAGGCGGGUUUUCUUCAUUGGCCUAGAUUUUGCGGCAGAUUAGACCUUUUGAAGGUUCUCCACCAUUUUCGUACGUCUC	0.485
CCACAAGGCUUUGAGACACAUCCAGAGAUGAGGUGGUAUCAGACCUGUCCUUCCACACCAAAGACAUGGUGGUGCUGCUGCUGCUGCUUCUGCUGGUGAAGUCUGUGUCC	0.39
CUAAAAGAGCCUAAGCAGGAAAAAUCCUAGGGUGAGGCAAUGUUUGCAUGAUGAGAGAGGAAGGGUUUGCCAUAGAGAGCUGAAAUGGGGAUUUAGACUGAUGUGUGCAU	56.3

Series 2
Target: Fragile X messenger ribonucleoprotein 1, C-terminal low-complexity region (Fmr1, Mus musculus, UniProt P35922)
Technique: RNA Bind-n-Seq
Form: RNA
Medium: in vitro
Concentration: 200 nM
Notes: whole 134-nt RNA, ends assumed
Together with: 150 mM KCl
Reference: input library
Direction: higher = stronger binding
Constant ends, left off below: GGGAGUUCUACAGUCCGACGAUC … UGGAAUUCUCGGGUGUCAAGG
Oligonucleotide	log2 enrichment
ACCAUGCAGGUGGGCAUCUUUGGGAAGUGGGGCAAGGGGGGGAUAGGGAGGGGGGUAACACUUUGGGAACAGGUGGUCACAGGUCGUUUC	0.783
AGUUACGGUAGCAGUUCUCAGAGCAGCAGCUAUGGGCAGCCCCAGAGUGGGAGCUACAGCCAGCAGCCUAGCUAUGGUGGACAGCAGCAA	-1.21
UUCUUGCCUAUGCUGUGCGCCACACCAUCCAGGUGUACCGGCUCUCCAAGUACAACACGGAAGAAUUCAUCACAGUCUACCCCACCGACC	0.335
AAGUCCUGUGCUACACAUCGUAUGUACCGAAUCGGGCCCGGGCCCGGGGCCCGGGGAAAGUAUUAUGUUACGCCGUUCGGAUCUGCACUU	-0.823
ACCAUGCAGGUGGGCAUCUUUGGGAAGAGGGGCAAGGGGGGGAUAGGGAGGGGGGUAACACUUUGGGAACAGGUGGUCCCAGGUCGUUUC	0.994
CCUCAAGUCCUGUGCUACACAUCGUAUGUACCGAAUCGGUUUGGUUUGGUGGAAAGUAUUAUGUUACGCCGUUCGGAUCUGCACUUCCAG	-0.314
CCUGUGCUACACAUCGUAUGUACCGAAUCGGGGAAAAAAAGGAAAAAAAGGGAAAAAAAGGAAAGUAUUAUGUUACGCCGUUCGGAUCUG	-0.799
CACAGACAACACGCACCCACACAGACACAGAGGGAAGGGGUUGGGAUGGGGACAGGGUGCACAGCAGGGAGGGGUAGGACCCCAGCCCCU	1.19
UCAAGUCCUGUGCUACACAUCGUAUGUACCGAAUCGGAGGUUUUUGGAAAAAGGAAAGUAUUAUGUUACGCCGUUCGGAUCUGCACUUCC	-0.953

Series 3
Target: Histone acetyltransferase KAT6A, winged helix 1, GST fusion (KAT6A, Homo sapiens, UniProt Q92794, residues 1-85)
Technique: protein binding microarray
Form: double-stranded DNA, one strand shown
Medium: in vitro
Concentration: not given
Notes: 8-mer, flanks averaged, mean of 2 arrays, mostly near background
Reference: not given
Direction: higher = stronger binding
Construct (chain): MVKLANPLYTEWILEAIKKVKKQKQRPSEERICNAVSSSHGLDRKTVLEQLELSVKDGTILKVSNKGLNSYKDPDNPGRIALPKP
Oligonucleotide	E-score
CCAGGGAA	-0.144
TTAAAAAA	-0.216
CAGAACTG	-0.104
GTCGGACA	0.168
CGGGATCA	0.294
CCGATCCC	0.19
CGTCGATC	0.11
TCCCTTCA	-0.222
AGGACCTC	-0.00782
AACCCTCC	-0.119
TACTTACA	-0.0818
CCTTGTAA	-0.104
CGTTGTTA	-0.0985
GAGGAATA	-0.203
AATGTTTG	-0.165
ACGAGTGC	0.0979
ATTGTCCC	0.0414
CATCGACA	-0.11
ACACTACA	-0.143
AGGAAGCC	-0.0188
CGTTTTTA	0.0985
AATCACAC	-0.173
ACTACCTA	0.0455
GGTCAGCA	-0.0849
AATTTGCA	-0.276

Series 4
Target: Hepatocyte nuclear factor 3-alpha (Foxa1, Mus musculus, UniProt P35582, residues 1-468, full length assumed)
UniProt P35582, sequence (whole entry, looked up): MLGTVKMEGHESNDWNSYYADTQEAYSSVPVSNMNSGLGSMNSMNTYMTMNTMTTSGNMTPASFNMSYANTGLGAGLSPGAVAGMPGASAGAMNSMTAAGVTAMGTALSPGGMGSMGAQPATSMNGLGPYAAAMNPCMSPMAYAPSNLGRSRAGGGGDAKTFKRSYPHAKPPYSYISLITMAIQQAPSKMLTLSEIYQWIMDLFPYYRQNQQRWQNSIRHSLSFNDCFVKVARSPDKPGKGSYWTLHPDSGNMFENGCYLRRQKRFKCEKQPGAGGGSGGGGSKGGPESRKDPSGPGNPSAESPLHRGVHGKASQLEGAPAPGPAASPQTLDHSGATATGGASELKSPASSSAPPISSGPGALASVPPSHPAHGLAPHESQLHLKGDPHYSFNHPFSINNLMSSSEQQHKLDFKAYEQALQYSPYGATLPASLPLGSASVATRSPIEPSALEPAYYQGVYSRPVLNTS
Technique: EMSA with sequencing
Form: double-stranded DNA, one strand shown
Medium: in vitro
Concentration: 10 and 20 nM
Notes: whole designed probe, mean of two concentrations, ends assumed
Reference: negative control set to 0
Direction: higher = stronger binding
Constant ends, left off below: GTGAGCGGTGCCCATTGATGGGGAAC … TTTCACTGGGATCGTGGGGAC
Oligonucleotide	normalised bound fraction
CAGCTTTTCATATCTGGCCATCTTAGAGCAGGGGAGATTGAGAAACAGAGAGAGGAAGAACCAGGGAAAGAAGTCTGGCTCCAAGCCCAGTGGGTAAACATGCTGGCTGCCTTCTCACACAGATTACTTTTCAAAAATGAAAAGGGAGTGTCCAGCTTCGTTTGGAATAAAGATGAGGAAATGACTCTCAGCT	0.0849 ratio
TAAGCTTACACTACACCATGCTAGGGAAGAGAATAGGTCATTTCCAGGTGTCTCTGTATGGAAAAGAGAATGTTTTCCTTTCCAGTAGCTTAAGTAAACATCAAGTTTCATTGGCTCTGTTAGGGCTATTTTCATTTATTTCTGAACAAATGATCAGGATACACTAACTGTAGAGCCAATCACATTGTAACTA	0.424 ratio
GTCTAGCTCCAGTCTTAGCATGGCAATTTCTTCCCGCAACGTACTATTTTCATGCAAGAAGTCTTTTTCTTTCTTACAACTAAGAGAAAGCTAAGTAATCTAAGAGAACTTTTAGTTAGCACTCAATAGATTGACATATCATTATTTCTTCTGAAATTCAAAAATAACATGTATTTGTATAATGAAAGAATCC	0.11 ratio
TCCAAGTTTTATTTGTATTAAAACCTCTCTACAACATCATCACTTAACAGCAGCTAATTATAGTGCTGCATAATATCTTATTTTCATCTGTATGTTTACATAGTTTTTAATTAGCTGTAGTTATAATTTTTTGATTTACTTTTGATATATAATGTGAATCATTATATATTAGGGGTCCCCAACCCCTGGGCCA	0.477 ratio
CATGTACAAACAAAATATGGGTTGTGTAATTTCAGTAATTCCATGTACAAGTTAAACACTCTGATATATTGCACAATTTGCATTTAAAATGTCGTAAACATGAATGCTAACAATCTTTTTTTTTTTTCCTGAGACGGAGTCTTGCTCTATCGCCCAGGCTGGAGTGCAGCGGCACAATCTCTGCTTACTGCCA	0.206 ratio

Series 5
Target: Sal-like protein 4, full length isoform B (SALL4, Homo sapiens, UniProt Q9UJQ4-2, residues 1-616)
Technique: universal PBM
Form: double-stranded DNA, one strand shown
Medium: in vitro
Concentration: not given
Notes: 8-mer, flanks averaged, mean of replicates
Direction: higher = stronger binding
Residues (chain): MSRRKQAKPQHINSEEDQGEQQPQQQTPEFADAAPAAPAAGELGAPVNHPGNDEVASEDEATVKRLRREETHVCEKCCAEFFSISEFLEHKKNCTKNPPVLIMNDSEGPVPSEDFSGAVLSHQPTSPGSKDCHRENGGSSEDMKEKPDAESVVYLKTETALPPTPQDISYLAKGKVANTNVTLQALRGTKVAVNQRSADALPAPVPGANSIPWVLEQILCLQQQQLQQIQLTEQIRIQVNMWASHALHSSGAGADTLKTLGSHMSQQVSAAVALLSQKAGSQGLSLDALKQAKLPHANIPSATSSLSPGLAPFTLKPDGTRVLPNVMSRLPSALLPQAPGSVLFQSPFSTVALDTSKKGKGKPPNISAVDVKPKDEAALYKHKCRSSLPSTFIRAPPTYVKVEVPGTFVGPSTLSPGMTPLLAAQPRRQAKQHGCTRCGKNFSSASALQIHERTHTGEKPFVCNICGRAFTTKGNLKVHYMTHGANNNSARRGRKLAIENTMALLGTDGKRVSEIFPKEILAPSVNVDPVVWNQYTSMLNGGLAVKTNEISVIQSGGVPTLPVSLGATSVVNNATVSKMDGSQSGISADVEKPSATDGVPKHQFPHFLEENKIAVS
Oligonucleotide	E-score
CACCGTTA	-0.0109
GCGATTGA	-0.00053
CGCAACAA	0.0482
ACTCTGCA	-0.0832
CGTAACAA	0.153
AGACATCT	0.134
GAGTTTCA	-0.121
GCCCGGTA	-0.302
GCGGTGCC	-0.355
AGGGTTAC	-0.206
AAGGTCAG	-0.145
GTATGGCA	0.0396
GGGAGAAA	-0.0158
AAGACACA	0.0318
AAGGGGTC	-0.19
CCCAGCAG	-0.207
AACCGCGT	-0.0447
ACATTGAA	0.265
ACCGGAAT	-0.134
GTTAGTAA	0.186
GCACACAA	0.0186
GTATGTTA	0.271
CATCCAGC	0.0272
CATTGCTC	-0.181
CGGAGGGA	-0.24

For quick reference, copied from above (series 3):
Oligonucleotide	E-score
AATCACAC	-0.173
CCTTGTAA	-0.104
ACGAGTGC	0.0979
ATTGTCCC	0.0414
